Results from different studies.
± gives the spread as reported.

| SMILES | tested on | test | system | setting | scale | quantity | result |
| --- | --- | --- | --- | --- | --- | --- | --- |
| C=CC[C@@H]1/C=C(\C)C[C@H](C)C[C@H](OC)[C@H]2O[C@@](O)(C(=O)C(=O)N3CCCC[C@H]3C(=O)O[C@H](/C(C)=C/[C@@H]3CC[C@@H](O)[C@H](OC)C3)[C@H](C)[C@@H](O)CC1=O)[C@H](C)C[C@@H]2OC | Jurkat wild type | NFAT luciferase reporter |  |  |  | IC50 | 0.01 nM |
| CCOC(=O)c1nn(-c2ccccc2)c(C#N)c1NC(=O)c1ccn(CC)n1 | human PBMC monocytes | phagocytosis of anti-D RBCs |  |  |  | IC50 | 48100 ± 6100 nM |
| CCNCCc1ccc(CN(CC)c2cc(OC)ccc2[C@@H]2CCc3cc(O)ccc3C2)cc1 | MCF7/luciferase, wild type | cell proliferation |  |  |  | IC50 | 5.3 nM |
| COc1ccc(-c2cncc(N[C@@H](C)c3cccc(NC(=O)c4cncc(C)c4)c3)n2)cc1OC | NCI-H1703 | HTRF, item: ERK phosphorylation |  | together with: PDGF-BB |  | IC50 | 70 nM |
| C[C@H](Nc1ccc2c(c1)OCCn1cc(N3C(=O)OC[C@H]3C(F)F)nc1-2)C(N)=O | SK-OV-3 | western blot, item: phospho-S6 Ser235/Ser236 |  | 2 h |  | IC50 | 36.3 nM |
| CC#Cc1cncc(-c2ccc3c(c2)[C@@]2(N=C(C)C(N)=N2)[C@]2(CC[C@H](OC)CC2)C3)c1 | HEK293 overexpressing APP Swedish mutant | Aβ42 production |  |  |  | IC50 | 0.37 nM |
| C[C@H]1CN(C2COC2)CCN1c1ccc(Nc2cc(-c3ccnc(N4CCn5c(cc6c5CC(C)(C)C6)C4=O)c3CO)cn(C)c2=O)nc1 | TMD8 RAC2 knockout | calcium flux, FLIPR |  | 1 h preincubation |  | IC50 | 5.1 nM |
| COc1cc(N2CCC(N3CCN(C)CC3)CC2)ccc1Nc1ncc(Cl)c(Nc2ccccc2P(C)(C)=O)n1 | ALK fusion wild-type cell lines | cell viability |  | geometric mean over 8 lines |  | IC50 | 10.6 nM |
| CN1CC(Oc2cnc(C#N)cc2-c2ccn3nc(NC(=O)C4CC4)cc3c2)C1 | dendritic cells, mouse, bone marrow-derived | cytokine release, item: TNF |  | together with: LPS |  | IC50 | 5920 nM |
| C=CC(=O)N1CCC[C@@H](c2ccc(C(N)=O)c3[nH]ccc23)C1 | TMD8 RAC2 knockout | calcium flux, FLIPR |  | 4 h preincubation |  | IC50 | 15 nM |
| CCC(C(=O)O)C(=O)O |  | binding, equilibrium dialysis LC-MS |  | 5 µM, thermostabilized A2AR-BRIL construct | baseline: no-protein control, direction not given | z-scored log2 fold change | -0.195 |
| C=CC(=O)N1CCC(COCC(=O)N2CCN(c3nc(-c4cnc(N)nc4C(F)F)nc(N4CCOC[C@@H]4C)n3)CC2)CC1 | SK-OV-3 | Akt phosphorylation, inhibitor, in-cell western, item: Akt pSer473 |  | 1 h |  | IC50 | 19.2 nM |
| COc1cc(Nc2nccc(-c3cnn4nc(OC)ccc34)n2)cc(C(F)(F)F)c1 | MCAS | cell growth, CellTiter-Glo | ovary |  |  | IC50 | 440 nM |
| CCOc1cc2ncc(C#N)c(Nc3ccc(OCc4ccccn4)c(Cl)c3)c2cc1NC(=O)/C=C/CN(C)C | Ba/F3 expressing HER2 L755S | cell growth, inhibitor, CellTiter-Glo |  |  |  | IC50 | 6.5 nM |
| C#Cc1cccc(Nc2ncnc3cc(OCCOC)c(OCCOC)cc23)c1 | C6 rat cells |  |  | 24 h |  | IC50 | > 100000 nM |
| CCCCN1C[C@H](O)[C@@H](O)[C@@H](O)[C@H]1CO | sample H patient fibroblasts | Gb3 level lowering, LC-MS/MS, item: Gb3 d18:1/22:0 |  | 216 h |  | IC50 | 21400 nM |
| C=CC(=O)N1CCC([C@@H]2CCNc3c(C(N)=O)c(-c4ccc(Oc5ccccc5)cc4)nn32)CC1 | TMD8 RAC2 knockout | calcium flux, FLIPR |  | 4 h preincubation |  | IC50 | 1.1 nM |
| C=CC(=O)N1CCC(C(=O)NCC(=O)N2CCN(c3nc(-c4cnc(N)nc4C(F)F)nc(N4CCOCC4)n3)CC2)CC1 | SK-OV-3 | Akt phosphorylation, inhibitor, in-cell western, item: Akt pSer473 |  |  |  | IC50 | 81.3 nM |

| SMILES | tested on | test | system | setting | scale | quantity | result |
| --- | --- | --- | --- | --- | --- | --- | --- |
| C[C@@H]1CN(C(=O)c2ccc(NC(=O)c3cc(O[C@H](C)c4c(Cl)ccc(F)c4Cl)c(N)nn3)cc2)C[C@H](C)N1 | NB1 (ALK amplification, exon 2-3 deletion) | cell viability |  |  |  | IC50 | 5.06 nM |
| C=CC(=O)Nc1cc(Nc2nccc(-c3cn(C)c4ccccc34)n2)c(OC)cc1N(C)CCN(C)C | Ba/F3 EGFR 19Del/T790M/C797S | cell growth |  | 72 h |  | IC50 | 1130 nM |
| C=CC(=O)N1CCC[C@@H](n2nc(-c3ccc(Oc4ccccc4)cc3)c3c(N)ncnc32)C1 | TMD8 RAC2 knockout | calcium flux, FLIPR |  | 4 h preincubation |  | IC50 | 0.8 nM |
| CC1(C)COc2ccc(F)cc2CN2c3nc4c(cnn4cc3OC[C@H]2C(F)F)C(=O)N1 | KARPAS-299 (NPM1-ALK) | cell viability |  |  |  | IC50 | 9.85 nM |
| CCNCCCn1c2c(c3cc(OC)c(OC)cc3c1=O)C(=O)c1cc3c(nc1-2)OCO3 | TC-106 Ewing sarcoma cells | cytotoxicity, MTS |  | 72 h |  | IC50 | 157 ± 2 nM |
| CC(C)(C)c1cnc(CSc2cnc(NC(=O)C3CCN(C(=O)CCCCCCN4Cc5cc6c(cc5C4)C(=O)N(C4CCC(=O)NC4=O)C6=O)CC3)s2)o1 (centres unmarked) | TC-71 | cell growth, MTT |  | 72 h |  | IC50 | 9.6 ± 0.2 nM |
| N[C@@H](Cc1ccccc1)C(=O)O |  | binding, equilibrium dialysis LC-MS |  | 5 µM, thermostabilized A2AR-BRIL construct | baseline: no-protein control, direction not given | z-scored log2 fold change | 0.164 |
| COc1cc2c3c(n(CCCNCCO)c(=O)c2cc1OC)-c1nc2c(cc1C3=O)OCO2 | TC-106 Ewing sarcoma cells | cytotoxicity, MTS |  | 72 h |  | IC50 | 202 ± 2 nM |
| COC(=O)CC1CCN(C(=O)c2cc(-c3cccs3)nn2-c2ccccc2)CC1 | human PBMC monocytes | phagocytosis of anti-D RBCs |  |  |  | IC50 | 12400 ± 2700 nM |
| C=CCn1c(=O)c2cnc(Nc3ccc(N4CCN(C)CC4)cc3)nc2n1-c1ccc2c(n1)[C@@](O)(CC)CC2 | NCI-H1048 | cell viability, CellTiter-Glo |  | 72 h |  | IC50 | 310 nM |
| CC#CC(=O)N1CCC[C@H]1c1nc(-c2ccc(C(=O)Nc3ccccn3)cc2)c2c(N)nccn12 | TMD8 RAC2 knockout | calcium flux, FLIPR |  | 1 h preincubation |  | IC50 | 82 nM |
| CC(C)(C)c1cnc(CSc2cnc(NC(=O)C3CCN(C(=O)CCCCCCCCCN4Cc5cc6c(cc5C4)C(=O)N(C4CCC(=O)NC4=O)C6=O)CC3)s2)o1 (centres unmarked) | TC-71 | cell growth, MTT |  | 72 h |  | IC50 | 71.7 ± 2.4 nM |
| Cc1cc(Nc2ncc(Cl)c(Nc3ccccc3S(=O)(=O)C(C)C)n2)c(OC(C)C)cc1C1CCNCC1 | ALK fusion wild-type cell lines | cell viability |  | geometric mean over 8 lines |  | IC50 | 27.8 nM |
| CCC(=O)N1CCC(COCC(=O)N2CCN(c3nc(-c4cnc(N)nc4C(F)F)nc(N4CCOC[C@@H]4C)n3)CC2)CC1 | SK-OV-3 | FOXO1 translocation, kinase translocation reporter |  | 2 h |  | IC50 | 214 nM |
| C[C@H]1Oc2cc(cnc2N)-c2c(nn(C)c2C#N)CN(C)C(=O)c2ccc(F)cc21 | ALK fusion wild-type cell lines | cell viability |  | geometric mean over 8 lines |  | IC50 | < 2.1 nM |
| C=CC(=O)Nc1cccc(Oc2nc(Nc3ccc(N4CCN(C)CC4)cc3)nc3ccoc23)c1 | TMD8 RAC2 knockout | calcium flux, FLIPR |  | 4 h preincubation |  | IC50 | 33 nM |
| Cc1nc(NC(=O)N2CCC[C@H]2C(N)=O)sc1-c1ccnc(C(C)(C)C(F)(F)F)c1 | Detroit 562 | CellTiter-Glo |  | 120 h |  | IC50 | 10500 nM |

For quick reference, copied from above:
| SMILES | tested on | test | system | setting | scale | quantity | result |
| --- | --- | --- | --- | --- | --- | --- | --- |
| C[C@@H]1CN(C(=O)c2ccc(NC(=O)c3cc(O[C@H](C)c4c(Cl)ccc(F)c4Cl)c(N)nn3)cc2)C[C@H](C)N1 | NB1 (ALK amplification, exon 2-3 deletion) | cell viability |  |  |  | IC50 | 5.06 nM |
| CC#CC(=O)N1CCC[C@H]1c1nc(-c2ccc(C(=O)Nc3ccccn3)cc2)c2c(N)nccn12 | TMD8 RAC2 knockout | calcium flux, FLIPR |  | 1 h preincubation |  | IC50 | 82 nM |
| CCOc1cc2ncc(C#N)c(Nc3ccc(OCc4ccccn4)c(Cl)c3)c2cc1NC(=O)/C=C/CN(C)C | Ba/F3 expressing HER2 L755S | cell growth, inhibitor, CellTiter-Glo |  |  |  | IC50 | 6.5 nM |
| CCOC(=O)c1nn(-c2ccccc2)c(C#N)c1NC(=O)c1ccn(CC)n1 | human PBMC monocytes | phagocytosis of anti-D RBCs |  |  |  | IC50 | 48100 ± 6100 nM |
| CCC(=O)N1CCC(COCC(=O)N2CCN(c3nc(-c4cnc(N)nc4C(F)F)nc(N4CCOC[C@@H]4C)n3)CC2)CC1 | SK-OV-3 | FOXO1 translocation, kinase translocation reporter |  | 2 h |  | IC50 | 214 nM |
| CC(C)(C)c1cnc(CSc2cnc(NC(=O)C3CCN(C(=O)CCCCCCN4Cc5cc6c(cc5C4)C(=O)N(C4CCC(=O)NC4=O)C6=O)CC3)s2)o1 (centres unmarked) | TC-71 | cell growth, MTT |  | 72 h |  | IC50 | 9.6 ± 0.2 nM |
